Results pooled from the literature.
Compare with care: the assays were run in different laboratories. ± gives the spread as reported.
CYP2C8: Cytochrome P450 2C8 (CYP2C8, Homo sapiens, UniProt P10632)
UniProt P10632, sequence (whole entry, looked up): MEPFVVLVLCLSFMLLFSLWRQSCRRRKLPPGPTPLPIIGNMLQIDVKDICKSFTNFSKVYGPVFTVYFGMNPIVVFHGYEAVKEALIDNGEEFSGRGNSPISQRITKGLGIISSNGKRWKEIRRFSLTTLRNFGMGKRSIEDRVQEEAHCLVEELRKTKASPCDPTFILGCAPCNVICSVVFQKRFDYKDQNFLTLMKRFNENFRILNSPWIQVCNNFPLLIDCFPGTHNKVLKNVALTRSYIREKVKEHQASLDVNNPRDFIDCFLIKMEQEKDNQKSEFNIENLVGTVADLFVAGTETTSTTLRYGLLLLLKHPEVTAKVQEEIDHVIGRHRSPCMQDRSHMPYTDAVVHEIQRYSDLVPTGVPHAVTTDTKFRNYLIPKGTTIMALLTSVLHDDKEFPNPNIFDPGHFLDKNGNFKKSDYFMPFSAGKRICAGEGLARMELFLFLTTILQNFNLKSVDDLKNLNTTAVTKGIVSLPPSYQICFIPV
CYP2C19: Cytochrome P450 2C19 (CYP2C19, Homo sapiens, UniProt P33261)
UniProt P33261, sequence (whole entry, looked up): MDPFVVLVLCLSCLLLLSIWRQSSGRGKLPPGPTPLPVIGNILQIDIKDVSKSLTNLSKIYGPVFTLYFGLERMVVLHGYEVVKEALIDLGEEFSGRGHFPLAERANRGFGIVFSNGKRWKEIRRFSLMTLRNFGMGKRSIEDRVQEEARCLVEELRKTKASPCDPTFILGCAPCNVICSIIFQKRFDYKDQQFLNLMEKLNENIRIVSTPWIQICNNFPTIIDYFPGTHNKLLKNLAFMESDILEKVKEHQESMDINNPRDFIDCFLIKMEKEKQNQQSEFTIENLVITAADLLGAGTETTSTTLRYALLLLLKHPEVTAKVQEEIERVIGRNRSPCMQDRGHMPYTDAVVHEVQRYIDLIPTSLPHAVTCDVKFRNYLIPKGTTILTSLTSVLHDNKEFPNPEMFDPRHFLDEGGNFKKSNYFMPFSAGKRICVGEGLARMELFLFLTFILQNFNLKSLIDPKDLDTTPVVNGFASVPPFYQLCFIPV
sspA: Glutamyl endopeptidase (sspA, Staphylococcus aureus, UniProt P0C1U8)
UniProt P0C1U8, sequence (whole entry, looked up): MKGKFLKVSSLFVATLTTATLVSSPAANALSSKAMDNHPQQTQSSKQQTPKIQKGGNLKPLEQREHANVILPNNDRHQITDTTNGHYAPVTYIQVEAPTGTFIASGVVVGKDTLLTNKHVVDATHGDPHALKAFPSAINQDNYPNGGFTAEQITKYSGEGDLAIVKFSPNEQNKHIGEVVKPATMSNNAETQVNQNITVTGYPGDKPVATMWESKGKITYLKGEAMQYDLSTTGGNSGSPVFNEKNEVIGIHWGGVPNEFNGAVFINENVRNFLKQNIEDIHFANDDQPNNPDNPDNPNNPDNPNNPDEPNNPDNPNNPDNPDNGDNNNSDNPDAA
CYP2C9: Cytochrome P450 2C9 (CYP2C9, Homo sapiens, UniProt P11712)
UniProt P11712, sequence (whole entry, looked up): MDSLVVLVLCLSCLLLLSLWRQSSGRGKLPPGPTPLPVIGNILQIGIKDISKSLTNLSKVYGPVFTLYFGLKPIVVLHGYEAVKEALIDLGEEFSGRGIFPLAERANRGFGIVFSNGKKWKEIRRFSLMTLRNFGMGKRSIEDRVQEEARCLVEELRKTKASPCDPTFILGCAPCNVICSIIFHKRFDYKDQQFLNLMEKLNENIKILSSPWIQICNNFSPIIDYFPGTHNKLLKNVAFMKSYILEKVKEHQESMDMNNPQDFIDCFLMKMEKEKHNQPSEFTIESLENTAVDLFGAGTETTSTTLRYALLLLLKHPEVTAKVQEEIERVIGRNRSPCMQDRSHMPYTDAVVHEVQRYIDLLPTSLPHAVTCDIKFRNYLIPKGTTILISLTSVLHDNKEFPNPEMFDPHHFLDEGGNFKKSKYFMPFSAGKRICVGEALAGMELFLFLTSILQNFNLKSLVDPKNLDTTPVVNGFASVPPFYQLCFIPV
UniProt P33527, sequence (whole entry, looked up): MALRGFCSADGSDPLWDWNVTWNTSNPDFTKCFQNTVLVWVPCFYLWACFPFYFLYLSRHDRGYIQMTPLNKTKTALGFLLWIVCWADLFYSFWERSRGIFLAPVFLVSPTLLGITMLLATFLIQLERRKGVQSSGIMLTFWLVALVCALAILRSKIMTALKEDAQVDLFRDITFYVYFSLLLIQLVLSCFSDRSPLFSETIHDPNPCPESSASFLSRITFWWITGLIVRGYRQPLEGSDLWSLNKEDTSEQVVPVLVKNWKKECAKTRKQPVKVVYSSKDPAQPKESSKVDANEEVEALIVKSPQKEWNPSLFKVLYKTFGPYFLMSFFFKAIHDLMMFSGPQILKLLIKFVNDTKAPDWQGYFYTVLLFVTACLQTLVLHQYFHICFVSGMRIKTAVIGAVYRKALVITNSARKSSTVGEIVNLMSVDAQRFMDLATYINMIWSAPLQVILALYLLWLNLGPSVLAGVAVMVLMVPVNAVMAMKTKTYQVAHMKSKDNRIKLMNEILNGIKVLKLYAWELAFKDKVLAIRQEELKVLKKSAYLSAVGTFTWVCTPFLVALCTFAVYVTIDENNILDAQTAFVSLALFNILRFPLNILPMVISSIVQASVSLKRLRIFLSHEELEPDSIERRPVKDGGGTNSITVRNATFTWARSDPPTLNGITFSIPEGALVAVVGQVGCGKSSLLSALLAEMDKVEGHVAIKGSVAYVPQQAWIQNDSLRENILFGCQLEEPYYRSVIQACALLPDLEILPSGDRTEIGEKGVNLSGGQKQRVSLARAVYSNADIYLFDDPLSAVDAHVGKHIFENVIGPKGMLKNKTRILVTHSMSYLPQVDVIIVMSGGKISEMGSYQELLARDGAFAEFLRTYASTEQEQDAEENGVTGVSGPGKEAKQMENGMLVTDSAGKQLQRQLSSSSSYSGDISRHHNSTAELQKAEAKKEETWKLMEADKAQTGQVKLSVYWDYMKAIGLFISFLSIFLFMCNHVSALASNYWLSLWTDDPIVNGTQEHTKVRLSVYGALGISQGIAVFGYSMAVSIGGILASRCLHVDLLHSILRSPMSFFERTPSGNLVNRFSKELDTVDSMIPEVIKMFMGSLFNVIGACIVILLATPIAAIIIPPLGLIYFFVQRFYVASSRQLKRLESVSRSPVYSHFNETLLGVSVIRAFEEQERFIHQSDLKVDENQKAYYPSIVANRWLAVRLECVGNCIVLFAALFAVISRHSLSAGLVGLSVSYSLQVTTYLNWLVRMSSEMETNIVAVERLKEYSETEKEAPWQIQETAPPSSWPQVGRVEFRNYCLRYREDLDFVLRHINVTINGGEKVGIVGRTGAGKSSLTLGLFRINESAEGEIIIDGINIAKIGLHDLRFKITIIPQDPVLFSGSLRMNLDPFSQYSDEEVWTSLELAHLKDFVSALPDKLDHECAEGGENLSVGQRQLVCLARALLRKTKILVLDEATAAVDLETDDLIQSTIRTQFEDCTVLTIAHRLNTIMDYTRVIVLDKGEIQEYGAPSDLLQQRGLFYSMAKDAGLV
UniProt P08183, sequence (whole entry, looked up): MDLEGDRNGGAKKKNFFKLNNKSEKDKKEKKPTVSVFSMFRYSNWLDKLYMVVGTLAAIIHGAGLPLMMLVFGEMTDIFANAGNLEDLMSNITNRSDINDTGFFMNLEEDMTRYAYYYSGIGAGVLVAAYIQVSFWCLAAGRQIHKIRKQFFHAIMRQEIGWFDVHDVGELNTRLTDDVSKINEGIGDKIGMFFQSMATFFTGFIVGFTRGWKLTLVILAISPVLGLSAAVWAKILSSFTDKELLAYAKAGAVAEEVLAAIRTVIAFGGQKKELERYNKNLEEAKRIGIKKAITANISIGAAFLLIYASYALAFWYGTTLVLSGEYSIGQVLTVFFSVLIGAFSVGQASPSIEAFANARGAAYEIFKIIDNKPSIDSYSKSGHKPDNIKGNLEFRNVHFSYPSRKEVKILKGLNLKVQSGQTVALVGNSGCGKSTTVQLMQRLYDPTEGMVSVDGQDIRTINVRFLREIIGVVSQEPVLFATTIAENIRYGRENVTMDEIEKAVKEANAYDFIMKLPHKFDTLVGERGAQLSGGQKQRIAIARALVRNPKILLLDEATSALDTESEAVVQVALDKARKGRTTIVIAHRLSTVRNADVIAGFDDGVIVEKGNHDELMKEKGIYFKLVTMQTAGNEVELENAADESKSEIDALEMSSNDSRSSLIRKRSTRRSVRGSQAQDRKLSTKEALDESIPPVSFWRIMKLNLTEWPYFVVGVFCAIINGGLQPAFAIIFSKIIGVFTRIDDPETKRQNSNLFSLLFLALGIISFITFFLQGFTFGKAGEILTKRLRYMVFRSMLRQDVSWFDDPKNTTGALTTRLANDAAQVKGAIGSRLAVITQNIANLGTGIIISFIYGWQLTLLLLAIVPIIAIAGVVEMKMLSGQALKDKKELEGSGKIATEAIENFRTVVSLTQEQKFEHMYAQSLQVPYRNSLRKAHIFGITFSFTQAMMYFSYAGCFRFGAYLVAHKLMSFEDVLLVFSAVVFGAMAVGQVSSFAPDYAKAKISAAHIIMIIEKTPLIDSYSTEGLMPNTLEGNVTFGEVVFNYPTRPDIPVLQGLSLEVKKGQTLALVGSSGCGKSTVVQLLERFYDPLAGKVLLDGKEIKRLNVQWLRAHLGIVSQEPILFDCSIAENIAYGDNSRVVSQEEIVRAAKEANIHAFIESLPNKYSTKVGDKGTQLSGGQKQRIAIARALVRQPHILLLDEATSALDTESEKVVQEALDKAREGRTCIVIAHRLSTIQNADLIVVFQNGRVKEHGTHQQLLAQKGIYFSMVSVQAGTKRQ
UniProt Q06520, sequence (whole entry, looked up): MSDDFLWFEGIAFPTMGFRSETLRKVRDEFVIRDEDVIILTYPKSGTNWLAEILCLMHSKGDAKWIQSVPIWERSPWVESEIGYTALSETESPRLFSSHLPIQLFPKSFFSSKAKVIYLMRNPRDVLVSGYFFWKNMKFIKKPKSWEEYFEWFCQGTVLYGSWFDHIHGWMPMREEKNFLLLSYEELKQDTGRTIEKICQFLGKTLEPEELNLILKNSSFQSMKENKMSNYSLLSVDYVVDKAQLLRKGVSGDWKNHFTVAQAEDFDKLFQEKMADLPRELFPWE

CNC(=O)Oc1cc(C)c([S+](C)[O-])c(C)c1 (centres unmarked)  inhibition (CYP2C8; human liver microsomes; 2 µM, pH 7.4, added: paclitaxel): < 0%
N=C(N)NCCC[C@@H](NC(=O)[C@H](N)Cc1c[nH]c2ccccc12)C(=O)N[C@H](CCCCN)C(=O)N[C@H](Cc1c[nH]c2ccccc12)C(=O)N[C@H](CCCNC(=N)N)C(=O)N[C@H](CCCCN)C(=O)N[C@H](Cc1c[nH]c2ccccc12)C(=O)N[C@H](CCCNC(=N)N)C(=O)N[C@H](CCCCN)C(=O)N[C@H](Cc1c[nH]c2ccccc12)C(=O)N[C@H](CCCNC(=N)N)C(=O)N[C@H](CCCCN)C(N)=O  remaining peptide (pepsin; RP-HPLC; 6 h, 37 °C): > 90%
COc1ccc(CCNc2cc(-c3ccccc3)nc3ncnn23)cc1  IC50 (CYP2C19): < 1 µM
CNC(=O)Oc1cc(C)c(S(C)(=O)=O)c(C)c1  inhibition (CYP2C8; human liver microsomes; 2 µM, pH 7.4, added: paclitaxel): < 0%
C[C@]12CC[C@H](O)CC1CCC1C2[C@H](O)C(=O)[C@]2(C)[C@@H](c3ccc(=O)oc3)CC[C@]12O (some centres unmarked)  sulfation rate (SULT2A1 (Homo sapiens, UniProt Q06520); substrate; recombinant human enzyme; 100 µM, 60 min, pH 7.4): 1.09 nmol/min/mg enzyme
CCCS(=O)(=O)c1ccc2[nH]c(NC(=O)OC)nc2c1  inhibition (CYP2C8; human liver microsomes; 2 µM, pH 7.4, added: paclitaxel): < 0%
CCCCCC1=C(NCC)C(=O)C(C/C=C(\C)CCC=C(C)C)=C(O)C1=O  inhibition (ABCB1 (Homo sapiens, UniProt P08183); transport, inhibitor; up to 22.5 µM): 81%
[64Cu+2].c1ccc(CNCc2ccc(CN3CCCNCCNCCCNCC3)cc2)nc1  tumour-to-tissue ratio (CXCR4; NOD/SCID mouse, U87 and U87-stb-CXCR4 xenografts; iv, 90 min, no blocking dose; relative to: U87 tumour over blood): 4.83 ± 2.26
CC(C)C[C@H](NC(=O)[C@H](CCCCN)NC(=O)[C@H](CCCNC(=N)N)NC(=O)[C@@H](CC(C)C)NC(=O)[C@H](Cc1c[nH]c2ccccc12)NC(=O)[C@H](CC(=O)O)NC(=O)[C@H](CCCCN)NC(=O)[C@@H](CC(C)C)NC(=O)[C@H](CCCNC(=N)N)NC(=O)[C@H](CCC(N)=O)NC(=O)[C@@H](NC(=O)[C@@H](CC(C)C)NC(=O)[C@H](CCCNC(=N)N)NC(=O)[C@H](CCCCN)NC(=O)[C@H](Cc1c[nH]c2ccccc12)NC(=O)CN)C(C)C)C(=O)N[C@H](C(N)=O)C(C)C  proteolytic stability (sspA; substrate, SDS-PAGE; 24 h, pH 7.4, 37 °C): stable
C=CC(=O)Nc1cc(Nc2nccc(-c3cn(C)c4ccccc34)n2)c(OCC(F)(F)F)nc1N(C)CCN(C)C  activity vs control (Cytochrome P450 3A4 (CYP3A4, Homo sapiens, UniProt P08684); enzyme activity, inhibitor; human, liver microsomes; 0.1 µM, midazolam probe): 79.6%
CC(C)(O)c1ccccc1CC[C@H](c1cccc(/C=C/c2ccc3ccc(Cl)cc3n2)c1)S(=O)(=O)CC1(CC(=O)O)CC1  inhibition (CYP2C9; inhibitor; human liver microsomes; 2 µM, pH 7.4, added: diclofenac): 44.5%
CC(C)C[C@H](NC(=O)[C@H](CCCCN)NC(=O)[C@H](CCCNC(=N)N)NC(=O)[C@@H](CC(C)C)NC(=O)[C@H](Cc1ccc(C(C)(C)C)cc1)NC(=O)[C@H](CC(=O)O)NC(=O)[C@H](CCCCN)NC(=O)[C@@H](CC(C)C)NC(=O)[C@H](CCCNC(=N)N)NC(=O)[C@H](CCC(N)=O)NC(=O)[C@@H](NC(=O)[C@@H](CC(C)C)NC(=O)[C@H](CCCNC(=N)N)NC(=O)[C@H](CCCCN)NC(=O)[C@H](Cc1ccc(-c2ccccc2)cc1)NC(=O)CN)C(C)C)C(=O)N[C@H](C(N)=O)C(C)C  proteolytic stability (sspA; substrate, SDS-PAGE; 24 h, pH 7.4, 37 °C): stable
Cc1cn2c(C(=O)NCc3ccc(C(F)(F)F)cc3)c(C)nc2s1  IC50 (CYP2C9; inhibitor): 19.2 µM
CCN(CC)CCOc1ccc(-c2nnn(Cc3ccc(OC)cc3)c2N)cc1  IC50 (SLC47A2 (Homo sapiens, UniProt Q86VL8); transporter uptake, inhibitor): 1.25 µM
Cc1ccc2nc(C)c(C(=O)NCc3ccc(C(F)(F)F)cc3)n2c1  IC50 (CYP2C19; inhibitor): > 20 µM
O=C1Cc2cc(CCN3CCN(C4=NS(=O)(=O)c5ccccc54)CC3)c(Cl)cc2N1  inhibition (CYP2C9; inhibitor; human liver microsomes; 2 µM, pH 7.4, added: diclofenac): 0.77%
CC[C@H](C)[C@H](NC(=O)[C@H](Cc1ccccc1)NC(=O)[C@H](CCC(=O)O)NC(=O)[C@H](CCCCN)NC(=O)[C@H](C)NC(=O)[C@H](C)NC(=O)[C@H](CCC(N)=O)NC(=O)CNC(=O)[C@H](CCC(=O)O)NC(=O)[C@H](CC(C)C)NC(=O)[C@H](Cc1ccc(O)cc1)NC(=O)[C@H](CO)NC(=O)[C@H](CO)NC(=O)[C@@H](NC(=O)[C@H](CC(=O)O)NC(=O)[C@H](CO)NC(=O)[C@@H](NC(=O)[C@H](Cc1ccccc1)NC(=O)[C@@H](NC(=O)CNC(=O)N(CCC(=O)O)NC(=O)[C@H](C)NC(=O)N(N)Cc1c[nH]cn1)[C@@H](C)O)[C@@H](C)O)C(C)C)C(=O)N[C@@H](C)C(=O)N[C@@H](Cc1c[nH]c2ccccc12)C(=O)N[C@@H](CC(C)C)C(=O)N[C@H](C(=O)N[C@@H](CCCNC(=N)N)C(=O)NCC(=O)N[C@@H](CCCNC(=N)N)C(=O)NCC(=O)O)C(C)C  half-life (DPP4 (Homo sapiens, UniProt P27487); proteolytic stability, substrate, HPLC-UV; up to 24 h, pH 7.4, 37 °C, added: recombinant enzyme 16 nmol/l): > 1440 min
CC(C)(O)c1ccccc1CC[C@H](c1cccc(/C=C/c2ccc3ccc(Cl)cc3n2)c1)[S+]([O-])CC1(CC(=O)O)CC1 (some centres unmarked)  inhibition (CYP2C8; human liver microsomes; 10 µM, pH 7.4, added: paclitaxel): 97.3%
Cc1cc(S(=O)(=O)N(C)CC(=O)Nc2ccn(C)c(=O)c2)c2[nH]ncc2c1  dissociation half-life (DLD (Homo sapiens, UniProt P09622); binding, SPR): 2 min
C=CCc1ccc(O)c(-c2cc(CC=C)cc(O)c2O)c1  inhibition (ABCC1 (Homo sapiens, UniProt P33527); calcein-AM efflux; 50 µM; relative to: verapamil 30 µM): 6.2 ± 1.3%
CC[C@H](C)[C@H](NC(=O)CN)C(=O)NCC(=O)N[C@@H](CCCCN)C(=O)N[C@@H](Cc1ccccc1)C(=O)N[C@@H](CC(C)C)C(=O)N[C@@H](Cc1c[nH]cn1)C(=O)N[C@@H](CO)C(=O)N[C@@H](C)C(=O)N[C@@H](CCCCN)C(=O)N[C@@H](CCCCN)C(=O)N[C@@H](Cc1ccccc1)C(=O)NCC(=O)N[C@@H](CCCCN)C(=O)N[C@@H](C)C(=O)N[C@@H](Cc1ccccc1)C(=O)N[C@H](C(=O)NCC(=O)N[C@@H](CCC(=O)O)C(=O)N[C@H](C(=O)N[C@@H](CCSC)C(=O)N[C@@H](CC(N)=O)C(=O)N[C@@H](CO)C(=O)O)[C@@H](C)CC)C(C)C  time to cleavage (Escherichia coli OmpT; substrate; E. coli BL21 expressing ompT, PBS; 2 µg/µL, room temperature): ≤ 15 min
[11CH3]Oc1ccc(Cc2ccncc2)nc1-c1cccc([N+](=O)[O-])c1  brain radioactivity (PDE4D; rhesus monkey; dose not given, 85 min, added: rolipram 1.0 mg/kg i.v. preblock): 0.65 SUV
CN1C(=O)[C@@H](Cc2ccc(O)cc2)NC(=O)CNC(=O)[C@H](Cc2ccc3ccccc3c2)NC(=O)[C@H](CCCNC(=N)N)NC(=O)[C@H]1CCCNC(=O)c1ccc(CNC(=O)CN2CCN(CC(=O)O)CCN(CC(=O)O)CCN(CC(=O)O)CC2)cc1 [gallium-68 labelled]  SUVmean (CXCR4 (Homo sapiens, UniProt P61073); PET; human, lymphoma lesion): 9.91

A few entries again:
CC(C)(O)c1ccccc1CC[C@H](c1cccc(/C=C/c2ccc3ccc(Cl)cc3n2)c1)[S+]([O-])CC1(CC(=O)O)CC1 (some centres unmarked)  inhibition (CYP2C8; human liver microsomes; 10 µM, pH 7.4, added: paclitaxel): 97.3%
Cc1cc(S(=O)(=O)N(C)CC(=O)Nc2ccn(C)c(=O)c2)c2[nH]ncc2c1  dissociation half-life (DLD (Homo sapiens, UniProt P09622); binding, SPR): 2 min
C=CCc1ccc(O)c(-c2cc(CC=C)cc(O)c2O)c1  inhibition (ABCC1 (Homo sapiens, UniProt P33527); calcein-AM efflux; 50 µM; relative to: verapamil 30 µM): 6.2 ± 1.3%
